Results of several laboratories.
Compare with care: the assays were run in different laboratories. Numbers after ± are the reported error.

Compound	system	setting	tissue uptake [%ID/g]
CN(C)c1ccc(-c2nc3ccc(OCCCCCN4CCN5CCN(CC4)CC(=O)[O][Al]([18F])[O]C(=O)C5)cc3s2)cc1	ICR mouse, muscle	intravenous, 10 min	2.96 ± 0.69
CC(C)[C@H](NC(=O)[C@@H]1CCCN1C(=O)[C@H](CCCNC(=N)N)NC(=O)[C@H](CS)NC(=O)[C@H](Cc1c[nH]c2ccccc12)NC(=O)[C@H](CCCNC(=N)N)NC(=O)[C@@H](Cc1ccccc1)NC(=O)[C@H](Cc1c[nH]cn1)NC(=O)[C@H](CCC(=O)O)NC(=O)[C@H](CS)NC(=O)[C@H](CS)NC(=O)[C@@H]1CC(=O)N[C@@H](CCCNC(=N)N)C(=O)NCC(=O)N[C@@H](CC(=O)O)C(=O)N[C@H](Cc2ccc(O)cc2)C(=O)N1)C(N)=O [technetium-99m labelled]	C57 mouse, female, B16/F1 melanoma, blood	intravenous, 0.037 MBq, 4 h	0.48 ± 0.32
CCCC[C@H](NC(=O)CNC(=O)CNC(=O)CN1CCN(CC(=O)O)CCN(CC(=O)O)CCN(CC(=O)O)CC1)C(=O)N[C@H]1CC(=O)NCCCC[C@@H](C(N)=O)NC(=O)[C@H](Cc2c[nH]c3ccccc23)NC(=O)[C@H](CCCNC(=N)N)NC(=O)[C@@H](Cc2ccccc2)NC(=O)[C@H](Cc2c[nH]cn2)NC1=O [copper-64 labelled]	female C57 mouse, B16/F1 melanoma, spleen	intravenous, 0.037 MBq, 24 h	2.87 ± 1
O=C([O-])CN1CCN(CC(=O)[O-])CCN(CC(=O)NCCc2ccc3c(c2)C2C=CCC2C(c2cc4c(cc2Br)OCO4)N3)CCN(CC(=O)[O-])CC1.[111In+3] (centres unmarked)	mouse, Hec50 endometrial tumour, spleen	1 h post injection	1.04 ± 0.25
CCCC[C@H](NC(=O)CNC(=O)CNC(=O)CN1CCN(CC(=O)O)CCN(CC(=O)O)CC1)C(=O)N[C@H]1CC(=O)NCCCC[C@@H](C(N)=O)NC(=O)[C@H](Cc2c[nH]c3ccccc23)NC(=O)[C@H](CCCNC(=N)N)NC(=O)[C@@H](Cc2ccccc2)NC(=O)[C@H](Cc2c[nH]cn2)NC1=O [copper-64 labelled]	female C57 mouse, B16/F1 melanoma, muscle	intravenous, 0.037 MBq, 2 h	0.29 ± 0.16
CC(C)[C@H](NC(=O)[C@@H]1CCCN1C(=O)[C@H](CCCNC(=N)N)NC(=O)[C@H](CS)NC(=O)[C@H](Cc1c[nH]c2ccccc12)NC(=O)[C@H](CCCNC(=N)N)NC(=O)[C@@H](Cc1ccccc1)NC(=O)[C@H](Cc1c[nH]cn1)NC(=O)[C@H](CCC(=O)O)NC(=O)[C@H](CS)NC(=O)[C@H](CS)NC(=O)CNC(=O)[C@@H]1CC(=O)N[C@@H](CCCNC(=N)N)C(=O)NCC(=O)N[C@@H](CC(=O)O)C(=O)N[C@H](Cc2ccc(O)cc2)C(=O)N1)C(N)=O [technetium-99m labelled]	C57 mouse, female, B16/F1 melanoma, blood	intravenous, 0.037 MBq, 2 h	0.7 ± 0.47
CCCC[C@H](NC(=O)CNC(=O)CNC(=O)CN1CCN(CC(=O)O)CCN(CC(=O)O)CCN(CC(=O)O)CC1)C(=O)N[C@H]1CC(=O)NCCCC[C@@H](C(N)=O)NC(=O)[C@H](Cc2c[nH]c3ccccc23)NC(=O)[C@H](CCCNC(=N)N)NC(=O)[C@@H](Cc2ccccc2)NC(=O)[C@H](Cc2c[nH]cn2)NC1=O [lead-203 labelled]	C57 mouse, liver	intravenous, 0.056 MBq, 2 h	1.03 ± 0.13
CN1C(=O)[C@@H](Cc2ccc(O)c(I)c2)NC(=O)CNC(=O)[C@H](Cc2ccc3ccccc3c2)NC(=O)[C@H](CCCNC(=N)N)NC(=O)[C@H]1CCCNC(=O)c1ccc(CNC(=O)CN2CCN(CC(=O)O)CCN(CC(=O)O)CCN(CC(=O)O)CC2)cc1 [lutetium-177 labelled]	female CB-17 SCID mouse, Daudi xenograft, liver	intravenous, 6 h, CXCR4 blocking, with: AMD3100 2 mg/kg coinjected	5.85 ± 0.24

Excerpt of the above:
Compound	system	setting	tissue uptake [%ID/g]
CCCC[C@H](NC(=O)CNC(=O)CNC(=O)CN1CCN(CC(=O)O)CCN(CC(=O)O)CCN(CC(=O)O)CC1)C(=O)N[C@H]1CC(=O)NCCCC[C@@H](C(N)=O)NC(=O)[C@H](Cc2c[nH]c3ccccc23)NC(=O)[C@H](CCCNC(=N)N)NC(=O)[C@@H](Cc2ccccc2)NC(=O)[C@H](Cc2c[nH]cn2)NC1=O [lead-203 labelled]	C57 mouse, liver	intravenous, 0.056 MBq, 2 h	1.03 ± 0.13
